Results collected from several papers.
A part holds a random share of what one study measured.

Block 1
Target: Histone acetyltransferase KAT6A, winged helix 1, GST fusion (KAT6A, Homo sapiens, UniProt Q92794, residues 1-85)
Technique: protein binding microarray
Form: double-stranded DNA, one strand shown
Matrix: in vitro
Tested at: not given
Notes: 8-mer, flanks averaged, mean of 2 arrays, mostly near background
Relative to: not given
Direction: higher = stronger binding
Construct (chain): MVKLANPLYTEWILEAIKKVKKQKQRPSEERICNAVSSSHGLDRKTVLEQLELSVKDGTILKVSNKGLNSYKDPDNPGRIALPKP
For `GATTAACA`, the E-score was -0.041.
`CCGATTGA` gave an E-score of -0.127.
With `GATGCGAA` the E-score was -0.00095.
For `CTGGCCAA`, the E-score was -0.195.
The E-score of `TGTAGTAA` is reported as -0.0487.
The E-score of `GATCAGCA` is reported as -0.169.
`CTAATAGA` gave an E-score of -0.168.

Block 2
Target: POU domain, class 5, transcription factor 1, POU domain (Pou5f1, Mus musculus, UniProt P20263, residues 131-289)
Sequence of UniProt P20263 (131-289, looked up): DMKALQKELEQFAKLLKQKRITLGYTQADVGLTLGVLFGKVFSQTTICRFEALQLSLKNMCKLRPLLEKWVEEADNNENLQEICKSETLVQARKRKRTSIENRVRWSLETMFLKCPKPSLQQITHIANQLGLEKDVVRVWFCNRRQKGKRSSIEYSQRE
Technique: Spec-seq
Form: double-stranded DNA, one strand shown
Matrix: in vitro
Tested at: not given
Notes: whole probe, mean of replicates
Relative to: not given
Direction: lower = stronger binding
All sequences stand within: GAGTCGTCTCGTCAGCACA … CCGTAGAGCACTCAGGTC
`TTTACAT`: “relative binding energy” -2.71 ln ratio.
For `GCATAAT`, “relative binding energy” read -0.533 ln ratio.
Under “relative binding energy”, `TGCTATT` is recorded as -0.0278 ln ratio.
`TGCAGGA`: “relative binding energy” 0.129 ln ratio.
For `TGCTACC`, “relative binding energy” read 0.449 ln ratio.
For `TGCACGT`, “relative binding energy” read 0.171 ln ratio.
For `TATGCAT`, “relative binding energy” read -1.7 ln ratio.
Under “relative binding energy”, `TATACAT` is recorded as -1.18 ln ratio.

Block 3
Target: RNA binding protein fox-1 homolog 2, RRM domain, GST-SBP tag (RBFOX2, Homo sapiens, UniProt O43251-10, residues 100-194)
Technique: RNA Bind-n-Seq
Form: RNA
Matrix: in vitro
Tested at: 365 nM
Notes: natural RNA segment, single round, ends assumed
Relative to: no-protein control
Direction: higher = stronger binding
All sequences stand within: GGGAGUUCUACAGUCCGACGAUC … UGGAAUUCUCGGGUGCCAA
`CUAGAUUAUCUUAACAAAUAAUACUCAGCUAAAUAUUUGCAUUUAGGAAUACUCCUAAAACAGAUAUUGCCAACUAGAUACACUGCCUCAAUCUUGACCAGACAAGAGAA` — result for “RBNS enrichment (R)”: 0.381.
For `GGGCCUGACCCCAACACCUGCAUGCUGGGUCCAGAGCCUUCUGUUUCACCGUGCGUGGACACUGCUAGGCCGCCUGGGGUCCCCUGCCUCCUGCCUGUCGCUGCCGUGGU`, “RBNS enrichment (R)” read 6.36.
For `ACAAUGUUUCUUCUGCAACUGGCUACUCCUCUUAUAUUAAUGCAUACACUUUUGUAAAGAAGUAUAUUUUUAUGAAAAGAAACUUUGUAAAAGUAUGAUGUAAAUUUUCA`, “RBNS enrichment (R)” read 0.555.
For `ACCACAGAGUGCACUCGAGGGGACUUUCAGUCACAGGAUUUCAUAAUUGUCAUUGUCACACUUUCAAAUUUUUGUACAUCAGUGAAUUUUUUUAUAUUAAAAGGUUGAGC`, “RBNS enrichment (R)” read 0.481.
`UUUUUUUAAACAAAACAAACUAAGCAAUAGUUUGGGCAGUUCUAGUUGUUUUUAGUGAGCAUGUUGUAGUCUCGACUGCAAAGAGAGAGAAUAAACUGCCCACUCAGAAG`: “RBNS enrichment (R)” 1.99.
For `GUGUACAGAGAGGCCCGUGCUAGCUAGCACCAAGUUGGUUGACAGAUUGUUUUGUGAUGCUUGCCCUGCCUCGGUAUUGCCAGUUUCUUGUGCAAUAAAGAAUCAGCAGC`, “RBNS enrichment (R)” read 0.417.

Mixed results
With `PhoQ, residues 284 288 289 292 302 303 TASMAF` the fold induction was 17.2 (PhoP, residues 12 14 15 18 19 VQGLL (Escherichia coli, UniProt P23836); Sort-seq, measured: YFP reporter; E. coli; PhoQ-PhoP variant library, with: 10 µM Mg2+; relative to: high Mg2+ state, higher = stronger signaling).

Excerpt of the above (mixed results):
With `PhoQ, residues 284 288 289 292 302 303 TASMAF` the fold induction was 17.2 (PhoP, residues 12 14 15 18 19 VQGLL (Escherichia coli, UniProt P23836); Sort-seq, measured: YFP reporter; E. coli; PhoQ-PhoP variant library, with: 10 µM Mg2+; relative to: high Mg2+ state, higher = stronger signaling).
